Measured values from different studies.
Compare with care: the assays were run in different laboratories.
Organism: Enterococcus faecalis

Cc1ncc2c(c1O)C(=O)C1=C(O)[C@]3(O)C(=O)C(C(N)=O)=C(O)[C@@H](N(C)C)[C@@H]3C[C@@H]1C2.Cl.Cl gave an MIC of > 32 µg/mL (tet(M)-carrying).
CC(C)C[C@@H](NC(=O)[C@H](C)NC(=O)CNC(=O)[C@@H](NC=O)C(C)C)C(=O)N[C@@H](C)C(=O)N[C@@H](C(=O)N[C@H](C(=O)N[C@@H](C(=O)N[C@@H](Cc1c[nH]c2ccccc12)C(=O)N[C@H](CC(C)C)C(=O)N[C@@H](Cc1cc2ccccc2[nH]1)C(=O)N[C@H](CC(C)C)C(=O)N[C@@H](Cc1c[nH]c2ccccc12)C(=O)N[C@H](CC(C)C)C(=O)N[C@@H](Cc1c[nH]c2ccccc12)C(=O)NCCO)C(C)C)C(C)C)C(C)C gave an MIC of 0.13 µM (broth microdilution; JCM 5803).
With Oc1c(Br)cc(Br)c2nc3ccccc3nc12 the MIC was 18.8 µM (broth microdilution; OG1RF, BHI broth; 16 h, 37 °C).
With Cc1ccc2[nH]c3c(c2c1)CCCC3NCCc1ccc(O)cc1 (stereo not shown) the MIC was 16 µg/mL (broth microdilution; JH2-2).
For CC[C@H](C)[C@H](NC(=O)[C@H](CC(C)C)NC(=O)[C@@H](NC(=O)[C@H](CCCNC(=N)N)NC(=O)[C@H](CCCNC(=N)N)NC(=O)[C@H](CCCNC(=N)N)NC(=O)[C@@H](N)CCCNC(=N)N)[C@@H](C)CC)C(=O)N[C@@H](CCCNC(=N)N)C(=O)N[C@@H](CCCNC(=N)N)C(=O)N[C@H](C(=O)N[C@@H](CC(C)C)C(=O)N[C@@H](CCCNC(=N)N)C(=O)N[C@@H](CC(C)C)C(=O)N[C@@H](CCCNC(=N)N)C(=O)N[C@@H](CO)C(=O)N[C@@H](CO)C(=O)N[C@@H](C)C(=O)N[C@@H](Cc1ccc(O)cc1)C(N)=O)C(C)C, the MIC was 8 µM (broth microdilution; ATCC 29212; highest value reported).
CC[C@H](C)[C@H](NC(=O)CN)C(=O)NCC(=O)N[C@@H](CCCCN)C(=O)N[C@@H](Cc1ccccc1)C(=O)N[C@@H](CC(C)C)C(=O)N[C@@H](CCCCN)C(=O)N[C@@H](CCCCN)C(=O)N[C@@H](C)C(=O)N[C@@H](CCCCN)C(=O)N[C@@H](CCCCN)C(=O)N[C@@H](Cc1ccccc1)C(=O)NCC(=O)N[C@@H](CCCCN)C(=O)N[C@@H](C)C(=O)N[C@@H](Cc1ccccc1)C(=O)N[C@H](C(=O)N[C@@H](CCCCN)C(=O)N[C@H](C(=O)N[C@@H](CC(C)C)C(=O)N[C@@H](CCCCN)C(=O)N[C@@H](CCCCN)C(N)=O)[C@@H](C)CC)C(C)C has an MIC of 6.3 µM (broth dilution; KCTC 3511).
CN[C@H](CC(C)C)C(=O)N[C@H]1C(=O)N[C@@H](CC(N)=O)C(=O)N[C@H]2C(=O)NC3C(=O)N[C@H](C(=O)N[C@H](C(=O)NCCC[N+](C)(C)C)c4cc(O)cc(O)c4-c4cc3ccc4O)[C@H](O)c3ccc(c(Cl)c3)Oc3cc2cc(c3OC2OC(CO)C(O)[C@H](O)[C@@H]2O[C@H]2CC(C)(NCc3ccc(-c4ccc(Cl)cc4)cc3)[C@H](O)[C@H](C)O2)Oc2ccc(cc2Cl)[C@H]1O (stereo partly shown) has an MIC of 20 µg/mL (BM4166, VanA vancomycin-resistant; together with: lipoteichoic acid 100 µg/mL).
The MIC of CCCCCCCC/C=C\CCCCCCCC(=O)NS(=O)(=O)NCCC is reported as > 200 µg/mL (ATCC 33186).
The MIC of NCCCC1CN(c2ccc3c(n2)NC(=O)CO3)C(=O)O1 (stereo not shown) is reported as 160 µg/mL (ATCC 29212).
With CCCNc1nc(Cl)c2c(c1O)C(=O)C1=C(O)[C@]3(O)C(=O)C(C(N)=O)=C(O)[C@@H](N(C)C)[C@@H]3C[C@@H]1C2.Cl.Cl.Cl the MIC was 2 µg/mL (tet(M)-carrying).
COc1ccc2cc1Oc1cc(ccc1OC)CCC(N[C@@H]1CCCc3ccccc31)CCCC2 (stereo partly shown) has an MIC of > 100 µg/mL (broth microdilution; ATCC 33186).
CN(C)[C@@H]1C(O)=C(C(N)=O)C(=O)[C@@]2(O)C(O)=C3C(=O)c4c(O)cccc4[C@@](C)(O)[C@H]3C[C@@H]12 gave an MIC of > 32 µg/mL (tet(M)-carrying).
CC[C@@H](C)[C@@H](NC(=O)[C@@H](CC(C)C)NC(=O)[C@H](NC(=O)[C@H](NC(=O)[C@H](NC(=O)[C@@H](CCCCN)NC(=O)[C@@H](CCCCN)NC(=O)[C@@H](CCCCN)NC(=O)[C@H](N)CCCCN)C(C)C)[C@H](C)CC)[C@H](C)CC)C(=O)N[C@H](CO)C(=O)N[C@H](CC(C)C)C(=O)N[C@H](CCCCN)C(=O)N[C@H](CCCCN)C(=O)N[C@H](CCCCN)C(=O)N[C@H](CCCCN)C(=O)N[C@H](Cc1ccccc1)C(=O)N[C@H](CO)C(=O)N[C@H](C)C(=O)N[C@H](Cc1ccc(O)cc1)C(N)=O gave an MIC of 0.5 µM (broth microdilution; ATCC 29212; highest value reported).

Some of these lines once more:
CC[C@@H](C)[C@@H](NC(=O)[C@@H](CC(C)C)NC(=O)[C@H](NC(=O)[C@H](NC(=O)[C@H](NC(=O)[C@@H](CCCCN)NC(=O)[C@@H](CCCCN)NC(=O)[C@@H](CCCCN)NC(=O)[C@H](N)CCCCN)C(C)C)[C@H](C)CC)[C@H](C)CC)C(=O)N[C@H](CO)C(=O)N[C@H](CC(C)C)C(=O)N[C@H](CCCCN)C(=O)N[C@H](CCCCN)C(=O)N[C@H](CCCCN)C(=O)N[C@H](CCCCN)C(=O)N[C@H](Cc1ccccc1)C(=O)N[C@H](CO)C(=O)N[C@H](C)C(=O)N[C@H](Cc1ccc(O)cc1)C(N)=O gave an MIC of 0.5 µM (broth microdilution; ATCC 29212; highest value reported).
Cc1ncc2c(c1O)C(=O)C1=C(O)[C@]3(O)C(=O)C(C(N)=O)=C(O)[C@@H](N(C)C)[C@@H]3C[C@@H]1C2.Cl.Cl gave an MIC of > 32 µg/mL (tet(M)-carrying).
